Literature values as cited in several papers.
Protocols differ between the studies behind these lines. ± marks the error that the study gave. Converted amounts (≈) assume the structure as drawn.
Chain of UniProt Q92630 (whole entry, looked up): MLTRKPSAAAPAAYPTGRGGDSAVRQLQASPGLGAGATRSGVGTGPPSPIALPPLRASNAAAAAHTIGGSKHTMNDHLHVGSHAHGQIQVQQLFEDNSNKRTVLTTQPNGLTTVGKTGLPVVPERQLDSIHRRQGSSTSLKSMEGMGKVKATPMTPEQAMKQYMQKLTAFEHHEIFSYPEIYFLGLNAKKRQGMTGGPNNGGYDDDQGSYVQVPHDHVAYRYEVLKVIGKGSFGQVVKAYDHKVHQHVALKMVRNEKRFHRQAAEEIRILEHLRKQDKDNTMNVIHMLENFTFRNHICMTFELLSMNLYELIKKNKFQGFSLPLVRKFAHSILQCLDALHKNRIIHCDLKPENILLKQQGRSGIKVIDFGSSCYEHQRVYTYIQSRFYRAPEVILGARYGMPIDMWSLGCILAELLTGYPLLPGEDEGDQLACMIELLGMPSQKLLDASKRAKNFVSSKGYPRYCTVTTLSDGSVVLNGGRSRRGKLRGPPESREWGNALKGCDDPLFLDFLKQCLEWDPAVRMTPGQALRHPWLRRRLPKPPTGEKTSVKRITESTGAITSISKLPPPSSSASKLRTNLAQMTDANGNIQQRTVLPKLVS

Structure (SMILES) | target or system | assay | system | setting | how to read | measurement | result
Cc1cc(Nc2ccc(S(F)(F)(F)(F)F)cc2)n2nc(C(C)(F)F)nc2n1 | Plasmodium falciparum | parasite reduction ratio | 3D7 |  |  | lag phase | 24 h
O=C(NC(=O)c1ccccc1O)c1ccccc1O | Plasmodium falciparum | whole cell extended time | 3D7 | 72 h |  | IC50 | 700 nM
Cc1ccc(Oc2ccc(NC(=O)CNc3ccccc3N3CCCC3=O)cc2)cc1 | Plasmodium falciparum | parasite growth | 3D7 population E L562R |  |  | EC50 | 6050 nM
CS(=O)(=O)NCCCNCc1ccc(-c2cccc(-c3nc4cc(C(F)(F)F)ccc4[nH]3)c2)cc1 | Plasmodium falciparum | whole cell extended time | 3D7 | 72 h |  | IC50 | 850 nM
CCc1nc(N)nc(N)c1-c1ccc(Cl)cc1 | Plasmodium falciparum |  | 3D7 0087/N9, NSG mouse | dose not given |  | AUC at ED90 | 5.2 µM·h
Cc1cccc2nc(-c3ccc(-c4ccc(CN5CC(C)OC(C)C5)cc4)cc3)[nH]c12 (stereo not shown) | Plasmodium falciparum | whole cell extended time | 3D7 | 72 h |  | IC50 | 520 nM
N#Cc1cc(NC(=O)[C@H]2c3ccccc3C(=O)N(CC(F)(F)F)[C@@H]2c2cccnc2)ccc1F | Plasmodium falciparum | clonal dilution |  | exposure above EC99 |  | time to maximal kill | 96 h
N/C(CC(O)c1cc2c(F)cc(F)cc2c2cc(C(F)(F)F)ccc12)=N\c1ccc(F)cc1 (stereo not shown) | Plasmodium falciparum | parasite growth | K1 |  |  | IC50 | 3 nM
CNC(C)C1CCC(N)C(OC2C(N)CC(N)C(OC3OCC(C)(O)C(NC)C3O)C2O)O1 (stereo not shown) | Acinetobacter baumannii |  | clinical isolate RKI-No_19/09 |  |  | MIC | > 8 µg/mL
O=C(/C=C/c1cccc(S(=O)(=O)Nc2ccccc2)c1)NO | Plasmodium falciparum | parasite growth | Dd2 (chloroquine-resistant) |  |  | IC50 | 130 ± 10 nM
Nc1cc(C(F)(F)F)c(-c2nc(N3CCOCC3)nc(N3CCOCC3)n2)cn1 | DYRK2 (Homo sapiens, UniProt Q92630) | enzyme activity |  | 10 µM | relative to: untreated | remaining activity | 100%
CC(C)(O/N=C(\C(=O)N[C@@H]1C(=O)N2C(C(=O)[O-])=C(C[n+]3ccccc3)CS[C@H]12)c1csc(N)n1)C(=O)O | Klebsiella pneumoniae |  | clinical isolate RKI-No_577/15 |  |  | MIC | 4 µg/mL (≈ 7.32 µM)
Cc1[nH]c2ccccc2c1CCNCc1ccc(/C=C/C(=O)NO)cc1 | Plasmodium falciparum | parasite growth | Dd2 (chloroquine-resistant) |  |  | IC50 | 30 ± 40 nM
